# Assay results gathered from unrelated publications.
# Every numbered part comes from another study and shows a few of its results, in no order. Changes are numbered by the printed parent chain.

# Series 1
# Target: CREB3L1, bZIP domain (human)
# Technique: DHFR protein complementation
# Matrix: yeast
# Notes: single substitutions, most at no-binding floor
# Baseline: wild-type JUN-FOS pair
# Direction: higher = stronger binding
# Parent: JUN, bZIP domain (human); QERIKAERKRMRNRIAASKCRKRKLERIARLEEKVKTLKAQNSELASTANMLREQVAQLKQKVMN; partner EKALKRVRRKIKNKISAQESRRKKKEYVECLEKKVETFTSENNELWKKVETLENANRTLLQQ
Change,binding fitness [natural log]
S47Y,-1.3
R53T,-1.43
I28Y,-1.54
T48W,-1.07
Q55F,-1.44
L52V,-1.45
K39S,-1.42
E33L,-1.51
L45C,-1.44
K39T,-1.46
R53A,-1.38
Q41I,-1.46
E44C,-1.14
V56T,-1.31
L31N,-1.49
Q55R,-1.47
A57E,-1.45

# Series 2
# Target: Histone acetyltransferase KAT6A, winged helix 2, GST fusion (KAT6A, Homo sapiens, UniProt Q92794, residues 85-181)
# Technique: protein binding microarray
# Form: double-stranded DNA, one strand shown
# Matrix: in vitro
# Tested at: not given
# Notes: 8-mer, flanks averaged, mean of 2 arrays, mostly near background
# Baseline: not given
# Direction: higher = stronger binding
# Residues (chain): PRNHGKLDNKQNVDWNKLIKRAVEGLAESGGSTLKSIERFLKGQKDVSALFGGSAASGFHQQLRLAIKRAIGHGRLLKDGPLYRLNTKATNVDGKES
Sequence,E-score
ACGACTAG,-0.0664
CAAGGATG,-0.0271
GCTAGACC,-0.127
AGTACGGC,0.0763
ACTATGCC,0.029
AAAGACAG,0.151
CGTCGTAG,-0.0365
ATTCGGCG,0.0839
TCCAACAA,0.029
AAAGTGTG,-0.194
AAGATATT,0.0325
GGAAATAC,-0.0485
TATTCTCA,-0.0325
GGACTACC,-0.114
AAATTTCG,0.0485
ACAAGATG,-0.119
AGGTCGCG,0.168
CCCTAGCA,-0.0497
GCCTATAC,-0.129
CAGCGTGA,0.00134
CGGGATCA,-0.00186
AGACTTAC,-0.322
AGTTAAGG,-0.0667
ATGGGGGC,-0.111
CATCTTTC,-0.115

# Series 3
# Target: Fragile X messenger ribonucleoprotein 1, C-terminal low-complexity region (Fmr1, Mus musculus, UniProt P35922)
# Technique: RNA Bind-n-Seq
# Form: RNA
# Matrix: in vitro
# Tested at: 200 nM
# Notes: whole 134-nt RNA, ends assumed
# Added: 150 mM LiCl
# Baseline: input library
# Direction: higher = stronger binding
# All molecules: 7-deaza-guanosine replaces G
Sequence,log2 enrichment
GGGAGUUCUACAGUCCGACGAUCUAACUUUAGAGGAGGCUCUGAUGGAUAUGGCAGUGGACGUGGAUUUGGGGAUGGCUAUAAUGGGUAUGGAGGAGGACCUGGAGGUGGCAAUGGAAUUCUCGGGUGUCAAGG,-0.144
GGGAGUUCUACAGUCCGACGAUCCCUCAAGUCCUGUGCUACACAUCGUAUGUACCGAAUCGGGAGGGUGGGUGGGAAAGUAUUAUGUUACGCCGUUCGGAUCUGCACUUCCAGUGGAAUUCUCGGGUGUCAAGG,-0.335
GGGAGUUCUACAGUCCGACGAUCUCCUGUGCUACACAUCGUAUGUACCGAAUCGGGAAAAAGGGAAAAAAAGGGAAAAAGGGAAAGUAUUAUGUUACGCCGUUCGGAUCUGCAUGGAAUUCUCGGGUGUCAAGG,0.508
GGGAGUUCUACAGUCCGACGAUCCCAGAGCCAGAGAGCUUGGGCCCUGGGACGCCUGGGUUCCCCGAGCAGGAGGAAGACGAACUUCACCGCACCCUGGGCGUGGAGCGGUUUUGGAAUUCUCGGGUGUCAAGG,-3.18
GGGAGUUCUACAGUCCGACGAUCAAAUAUCAGUGAUCAUCGCAAGGAAGGAGGCAGACAAGAGUAAGGCACACCUGACUCUUAGGACUAGCAGUCAGAACCAGGAGGAAAGGUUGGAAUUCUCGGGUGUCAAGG,-0.868
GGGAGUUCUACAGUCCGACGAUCCUCAAGUCCUGUGCUACACAUCGUAUGUACCGAAUCGGGUGGGUGGGAAAGGGAAAGUAUUAUGUUACGCCGUUCGGAUCUGCACUUCCAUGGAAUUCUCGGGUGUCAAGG,0.136
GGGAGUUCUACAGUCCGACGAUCUCAAGUCCUGUGCUACACAUCGUAUGUACCGAAUCGGGUGGGUUUUUGGGUGGGAAAGUAUUAUGUUACGCCGUUCGGAUCUGCACUUCCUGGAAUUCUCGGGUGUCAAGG,-0.468
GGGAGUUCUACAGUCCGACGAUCGUCCUGUGCUACACAUCGUAUGUACCGAAUCGGGCCCCCGGGGCCCCCGGGCCCCCGGAAAGUAUUAUGUUACGCCGUUCGGAUCUGCACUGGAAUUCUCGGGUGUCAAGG,0.249
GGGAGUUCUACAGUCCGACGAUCCAAGUCCUGUGCUACACAUCGUAUGUACCGAAUCGGAAAGGUUUUUGGAAAAAGGAAAGUAUUAUGUUACGCCGUUCGGAUCUGCACUUCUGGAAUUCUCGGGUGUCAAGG,-1.19
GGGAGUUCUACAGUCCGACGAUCUUGACAUGAAGACAAUGGAGACUGCAGAGAAACUGGCUAGAUUUGUUGCUCAGGUGGGACCAGAGAUCGAACAAUUCAGCAUAGAAAACAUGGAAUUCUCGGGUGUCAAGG,-1.64
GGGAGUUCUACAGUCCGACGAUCAAGUCCUGUGCUACACAUCGUAUGUACCGAAUCAAACCCCCAAAUUUAAACCCAAAAAAGUAUUAUGUUACGCCGUUCGGAUCUGCACUUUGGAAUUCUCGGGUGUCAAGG,0.781

# Series 4
# Target: CCND2, cyclin fold, Cln2 fusion (human)
# Technique: yeast growth competition, sequencing
# Matrix: yeast
# Notes: weak parent motif
# Baseline: not given
# Direction: higher = stronger binding
# Parent: RBL2 docking peptide (human); STTRRRLFVENDS; partner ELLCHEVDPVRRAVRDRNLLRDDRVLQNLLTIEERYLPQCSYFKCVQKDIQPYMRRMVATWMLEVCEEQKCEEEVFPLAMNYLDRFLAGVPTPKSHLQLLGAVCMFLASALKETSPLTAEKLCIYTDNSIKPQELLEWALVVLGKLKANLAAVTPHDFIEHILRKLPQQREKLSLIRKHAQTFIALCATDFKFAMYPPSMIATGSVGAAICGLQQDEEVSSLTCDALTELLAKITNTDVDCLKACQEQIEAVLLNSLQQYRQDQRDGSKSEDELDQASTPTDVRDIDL
Change,normalised enrichment score
T3V,0.368
F8S,0.198
T3P,0.0509
V9W,0.644
R5N,0.268
T3S,-0.0363
S1V,-0.0592
R6C,0.689
R6Q,0.44
S1C,0.632
F8L,0.146
T3A,-0.0128
V9P,-0.135
L7Y,0.224
N11T,0.185
R4W,-0.305
F8N,0.178
R5M,0.0945
V9I,-0.281
R6H,-0.0436
S13E,0.36
T3I,0.011

# Series 5
# Target: RNA binding protein fox-1 homolog 2, RRM domain, GST-SBP tag (RBFOX2, Homo sapiens, UniProt O43251-10, residues 100-194)
# Technique: RNA Bind-n-Seq
# Form: RNA
# Matrix: in vitro
# Tested at: 365 nM
# Notes: natural RNA segment, single round, ends assumed
# Baseline: no-protein control
# Direction: higher = stronger binding
# Residues (chain): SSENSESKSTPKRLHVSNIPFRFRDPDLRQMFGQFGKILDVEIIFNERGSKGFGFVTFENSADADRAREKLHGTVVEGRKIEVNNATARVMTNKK
Sequence,RBNS enrichment (R)
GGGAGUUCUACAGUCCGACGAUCCCGGUUGGCCGGCUGGCCGGUCCACCCCGUCCCGGCCCCGCGCGUGCCCCCAGCGUGGGGCUAACGGGCGCCUUGUCUGUGUAUUUCUAUUUUGCAGCAGUACCAUCCCAUGGAAUUCUCGGGUGCCAA,0.312
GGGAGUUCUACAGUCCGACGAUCGACAGUGACCGAUUUCUCUGGGUUGGGCCAAGACUUUAUUUACUGCAUCAUGCAUGACUCACUCAGGGGCCCUUGGGGCCCUCUUCUCUAUGAUAUGAAUACUGUGUGUGUGGAAUUCUCGGGUGCCAA,4.96
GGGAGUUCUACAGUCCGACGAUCAGUGGAAUGAAGAGGGGGCAGGAAGCAGCCCCAGCCCAGGCCUCCAGCCCGUCCGCCUCACCUUCCCGCUAGACUAUCACCUUAACCAACCUUUCCUCUUUGUUCUGAGGUGGAAUUCUCGGGUGCCAA,0.388
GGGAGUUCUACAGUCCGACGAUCACCCUGCUUACUAGGUUGUUCAUUCAUCCGUUUCUUGAGAGCUCCUAACUCCUGCAUCUCCUCAAGGGUGUUUCCUCCCUCCUCCCACAGCCUCAAGGACACACUUUCCAUGGAAUUCUCGGGUGCCAA,0.683
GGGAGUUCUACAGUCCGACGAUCACGUCACAGAACACCCAGGAAAGGGGAUUUCUGUGGUAUCACCGAGAACAUGUUAGCAGUCUGUCAGACCUGAGCUCUGGCAUGUGCGACAGCACGUUACUAAAGCAGUUUGGAAUUCUCGGGUGCCAA,0.925
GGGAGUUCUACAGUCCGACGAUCAGAGGCUUGUUUUGUCUUUUGGUUUUUAUGAGGUGGGAUAUCCCUAUGCUGCCUAGGCUGACCUUGAACUCCUGGGCUCAAGCAGUCUACCCACCUCAGCCUCCUGUGUAUGGAAUUCUCGGGUGCCAA,0.293
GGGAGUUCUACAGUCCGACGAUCUCCUCCCUGUUAUUUCCAAGUAGCUGGGAUUUUAAACUAGAUGACCUCAUUAACCAGUGCUUUACCAAACAGCAAACCAAGAGAUUGCUAAUUGCUGUUGAAAGCAAAAAUGGAAUUCUCGGGUGCCAA,0.335
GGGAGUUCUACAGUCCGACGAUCCGUGAUGUUCUAGAGUUGUAUGUGUCUGGGUUCUUCCUAUGAGAUCUAAGGGGACGUUAUAAGUGAGCAGAAUAUCAGAAGACCAUGAAUAUGGCAAUUCAUAGUUGAGCUGGAAUUCUCGGGUGCCAA,1.33
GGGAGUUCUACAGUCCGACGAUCGACAGCACAGGGGACAGGUGGCACACCAUGAGAGGUCUGCCCAGGGUGGGAGCAGUGUCACUGUGCUAGCAAUAGUUGGCUUCUCCCCUGUCAGUGGAAACCCCACUUCUUGGAAUUCUCGGGUGCCAA,0.313
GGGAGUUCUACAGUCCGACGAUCUUUGAGGAUAGCCAGGUUUGAAAUUUUUAGUUUCUCAGGAAGAGCUCUUCUAUGUGGCAGGGGCUGAUAGGGCAAAAUAAAAUGACAAUUUCUUUAUUGCUACAGAGUAUUGGAAUUCUCGGGUGCCAA,0.834
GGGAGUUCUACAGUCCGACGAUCUGGUCACUGCCCUUACCUGACCCUCACAGAAAGAGAGCUCUGAGCAGGUGAGGGGGUCUGCGGUGGCUCCUGUCUUCCCUGCAGCAGGGAAGGAGGGCCGUGUGGUGCUUUGGAAUUCUCGGGUGCCAA,0.57
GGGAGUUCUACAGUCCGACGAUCAGAUGUCUGUUGGAUUCAUGUCUUUUGCUAUAGUUCAGUAGCUUCUGCUAAAUUUCACUGAUUUUAAUCAUGCUGGAGACCUUAACUCCCAUCCUGAUACAUCCUGAAGUUGGAAUUCUCGGGUGCCAA,0.257

# Series 6
# Target: CEP164, C-terminal peptide (human)
# Technique: DHFR complementation, deep sequencing
# Matrix: yeast
# Notes: single substitutions, model-inferred values
# Baseline: wild type
# Direction: higher = weaker binding
# Parent: PDZK1, PDZ domain 2 (human); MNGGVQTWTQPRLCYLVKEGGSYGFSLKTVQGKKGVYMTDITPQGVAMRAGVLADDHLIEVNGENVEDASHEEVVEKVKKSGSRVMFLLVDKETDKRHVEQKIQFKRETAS; partner HNRVKVYRF
Change,binding free energy change
D56C,0.298 kcal/mol
H98K,-0.0683 kcal/mol
E73F,0.0422 kcal/mol
Y15A,0.212 kcal/mol
L88N,0.455 kcal/mol
Y15I,0.0163 kcal/mol
E100L,-0.076 kcal/mol
F105S,-0.135 kcal/mol
Q104S,-0.169 kcal/mol
H71I,-0.861 kcal/mol
E108R,-0.514 kcal/mol
N65F,0.475 kcal/mol
M86P,0.705 kcal/mol
T109N,-0.164 kcal/mol
V75M,1.73 kcal/mol
G63F,0.393 kcal/mol
S83Q,-0.00753 kcal/mol
T7A,-0.0272 kcal/mol
R84N,0.231 kcal/mol
G35S,1.33 kcal/mol
V85G,1.56 kcal/mol
E73H,0.0242 kcal/mol
E72D,0.382 kcal/mol
G63R,0.21 kcal/mol
V78I,0.101 kcal/mol

# Series 7
# Target: TAR DNA-binding protein 43, full length, His tag (TARDBP, Homo sapiens, UniProt Q13148, residues 1-414)
# Technique: RNA Bind-n-Seq
# Form: RNA
# Matrix: in vitro
# Tested at: 20 nM
# Notes: 6-mer, flanks averaged, single round
# Added: 150 mM LiCl
# Baseline: input library
# Direction: higher = stronger binding
Sequence,6-mer enrichment (R)
AGGCCU,0.925
CAAUUC,0.879
CCAACA,0.854
AAGUGG,1.15
UCUCCC,1.1
GGAGUU,1.06
AGCUGG,0.965
ACUGGU,0.946
ACCGUU,0.861
UUAGGG,1.1
UAAGUA,0.967
GACGAG,0.962
CGGGGG,1.32
GCUUAC,0.878
GUAGGG,1.24
UCCGCA,0.864
AACUUC,0.854

# Excerpt of the above (series 4):
Change,normalised enrichment score
S1V,-0.0592
R6C,0.689
R6Q,0.44
S1C,0.632
F8L,0.146
T3A,-0.0128
V9P,-0.135
L7Y,0.224
N11T,0.185
R4W,-0.305
F8N,0.178
R5M,0.0945
